Experimental data of several laboratories.
Lines come from different studies, so protocols differ. “And” joins repeats or separate records; there may be more than shown. ± gives the spread as reported.
Chain of UniProt Q15418 (whole entry, looked up): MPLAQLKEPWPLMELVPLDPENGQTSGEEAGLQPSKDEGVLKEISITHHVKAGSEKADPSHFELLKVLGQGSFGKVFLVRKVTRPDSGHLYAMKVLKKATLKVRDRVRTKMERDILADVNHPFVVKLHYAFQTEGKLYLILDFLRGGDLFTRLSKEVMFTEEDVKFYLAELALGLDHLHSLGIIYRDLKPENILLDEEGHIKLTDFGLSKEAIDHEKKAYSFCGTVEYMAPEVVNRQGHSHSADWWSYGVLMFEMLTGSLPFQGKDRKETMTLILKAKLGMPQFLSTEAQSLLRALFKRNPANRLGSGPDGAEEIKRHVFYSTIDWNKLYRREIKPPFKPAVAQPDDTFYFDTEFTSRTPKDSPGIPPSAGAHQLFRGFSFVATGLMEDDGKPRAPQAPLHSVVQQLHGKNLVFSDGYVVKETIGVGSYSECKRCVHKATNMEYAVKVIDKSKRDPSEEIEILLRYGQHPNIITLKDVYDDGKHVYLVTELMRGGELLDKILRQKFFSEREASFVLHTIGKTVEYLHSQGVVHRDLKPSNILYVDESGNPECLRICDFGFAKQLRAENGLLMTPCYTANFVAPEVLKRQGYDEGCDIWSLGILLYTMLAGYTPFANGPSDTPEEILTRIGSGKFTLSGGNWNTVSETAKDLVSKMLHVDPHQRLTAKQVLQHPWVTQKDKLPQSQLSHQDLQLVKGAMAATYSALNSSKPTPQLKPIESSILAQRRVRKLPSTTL
Chain of UniProt Q16584 (whole entry, looked up): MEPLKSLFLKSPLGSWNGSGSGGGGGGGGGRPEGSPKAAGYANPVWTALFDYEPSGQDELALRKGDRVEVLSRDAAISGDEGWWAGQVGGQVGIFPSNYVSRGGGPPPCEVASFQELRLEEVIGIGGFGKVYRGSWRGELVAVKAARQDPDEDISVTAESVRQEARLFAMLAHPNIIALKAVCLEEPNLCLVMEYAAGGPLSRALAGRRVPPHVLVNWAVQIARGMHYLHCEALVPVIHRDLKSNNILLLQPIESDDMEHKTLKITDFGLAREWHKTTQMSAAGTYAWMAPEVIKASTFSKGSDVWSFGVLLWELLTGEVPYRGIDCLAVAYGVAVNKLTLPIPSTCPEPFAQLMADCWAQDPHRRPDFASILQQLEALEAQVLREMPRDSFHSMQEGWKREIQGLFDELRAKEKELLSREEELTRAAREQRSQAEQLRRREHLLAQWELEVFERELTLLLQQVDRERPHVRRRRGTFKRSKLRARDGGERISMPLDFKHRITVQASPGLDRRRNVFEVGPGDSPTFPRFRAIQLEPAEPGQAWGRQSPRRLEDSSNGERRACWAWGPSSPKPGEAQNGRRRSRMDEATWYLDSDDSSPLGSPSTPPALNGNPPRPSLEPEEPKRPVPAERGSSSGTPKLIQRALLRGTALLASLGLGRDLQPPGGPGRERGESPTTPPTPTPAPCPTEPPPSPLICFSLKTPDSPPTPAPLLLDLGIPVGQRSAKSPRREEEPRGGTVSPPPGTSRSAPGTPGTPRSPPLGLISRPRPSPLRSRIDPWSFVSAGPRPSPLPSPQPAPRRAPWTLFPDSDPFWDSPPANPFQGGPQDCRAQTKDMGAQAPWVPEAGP

With `CC(C)[C@H](NC(=O)[C@H](CCCNC(=N)N)NC(=O)[C@@H]1CCCN1C(=O)[C@@H](NC(=O)[C@H](C)NC(=O)[C@H](Cc1ccc(O)cc1)NC(=O)[C@H](CCC(N)=O)NC(=O)[C@H](CCCCN)NC(=O)[C@H](CCCNC(=N)N)NC(=O)[C@@H]1CCCN1C(=O)[C@H](CCC(=O)O)NC(=O)[C@@H](NC(=O)[C@H](C)N)[C@@H](C)O)[C@@H](C)O)C(=O)N[C@@H](Cc1ccccc1)C(=O)N[C@@H](Cc1c[nH]c2ccccc12)C(=O)N[C@H](C(=O)N[C@@H](CC(=O)O)C(=O)N[C@@H](C)C(=O)N1CCC[C@H]1C(=O)NCC(=O)NCCOCCOCCOCCOCCOCCOCCOCCOCCOCCOCCOCCOCCC(=O)N[C@@H](CS)C(N)=O)[C@@H](C)O` the selectivity ratio was 4.3 ± 1.7 (HCC1171 lung carcinoma; cell binding, phage binding, measured: output/input phage; 10 min, 37 °C; reference: control phage).
`N#Cc1cccc(-c2ccc(=O)n(Cc3cccc(-c4ncc(OCC5CCN(CC(=O)N6CCN(c7ccc8c(c7)C(=O)N(C7CCC(=O)NC7=O)C8=O)CC6)CC5)cn4)c3)n2)c1` (stereo not shown): “protein level fold change” -4.63 (EBC-1; label-free proteomics, measured: SCEL; concentration not given; reference: control).
`COc1ccccc1-c1ccncc1C(=O)Nc1nnc(OCc2ccc(Cl)cc2)s1` has a colony survival of 81.6% (RPE-1 BRCA1 WT parental; 0.06 µM, run 2; reference: untreated).
`COc1ccccc1-c1n[nH]c2nc(NC3CCN(C(=O)Cc4ccc(F)cc4F)CC3)ncc12` gave a relative abundance of 1.1 (bead binding, competition bead pull-down, measured: LINJ.36.6760; Leishmania donovani extract; 10 µM; reference: vehicle).
With `N[C@H](C(=O)N1CCCC1)C1CCN(c2nccc3c(-c4ncc(Cl)cc4Cl)cccc23)CC1` the inhibition was -5.18% and 6.77% and -2.72% and 13.2% (human neutrophils; protein citrullination, inhibitor, flow cytometry, measured: citrullinated histone H3; 10 nM, with: ionomycin).
`CC[C@H](C)[C@H](NC(=O)[C@H](C)NC(=O)CNC(=O)[C@H](Cc1ccccc1)NC(=O)[C@H](CC(N)=O)NC(=O)[C@H](CC(N)=O)NC(=O)[C@H](CO)NC(=O)[C@H](CO)NC(=O)[C@H](Cc1c[nH]cn1)NC(=O)[C@@H](NC(=O)[C@H](CC(C)C)NC(=O)[C@H](Cc1ccccc1)NC(=O)[C@H](CC(N)=O)NC(=O)[C@H](C)NC(=O)[C@H](CC(C)C)NC(=O)[C@H](CCCNC(=N)N)NC(=O)[C@H](CCC(N)=O)NC(=O)[C@@H](NC(=O)[C@H](C)NC(=O)[C@@H]1CSSC[C@H](NC(=O)[C@@H](N)CCCCN)C(=O)N[C@@H](CC(N)=O)C(=O)N[C@@H]([C@@H](C)O)C(=O)N[C@@H](C)C(=O)N[C@@H]([C@@H](C)O)C(=O)N1)[C@@H](C)O)C(C)C)C(=O)N[C@@H](CC(C)C)C(=O)N[C@@H](CO)C(=O)N[C@@H](CO)C(=O)N[C@H](C(=O)N[C@@H](CC(N)=O)C(=O)N[C@H](C(=O)NCC(=O)N[C@@H](CO)C(=O)N[C@@H](CC(N)=O)C(=O)N[C@H](C(=O)N[C@@H](Cc1ccc(O)cc1)C(N)=O)[C@@H](C)O)C(C)C)[C@@H](C)O` has an EC50 of 68 µM (INS-1 832/13; cellular ATP; 24 h).
`CCCCCCCC(=O)[O][Pt]([Cl])([Cl])[O]C(=O)CCCCCCC.N.N` gave an IC50 reduction of about 78% (A549/DDP cisplatin-resistant; with: survivin siRNA transfection; reference: non-transfected cells).
The inhibition of `CS(C)(=O)=Nc1ccc(-c2ccc(-c3nc4cc(O[C@@H]5CO[C@H]6[C@@H]5OC[C@H]6O)[nH]c4cc3F)cc2)cc1` is reported as 2% (RPS6KA1 (Homo sapiens, UniProt Q15418); enzyme activity, inhibitor; 10 µM).
`CC(C)C12OC1C1OC13C1(C)CCC4=C(COC4=O)C1CC1OC13C2OC(=O)CCCOC1OC(CO)C(O)C(O)C1O` (stereo not shown) has an IC50 of 0.53 µM (MDA-MB-453; cell growth or viability, XTT; 47 h).
Under “glutathione peroxidase activity (OD450)”, `NC(=O)N/N=C/c1ccc(OCc2ccccc2)cc1` is recorded as 0.231 a.u. (IMR-32; measured: GPX3; 300 µg/mL, 24 h; higher = more activity).
`CN(C)[C@H]1C[C@@]23CC[C@@]4(O2)C(=CC[C@]2(C)[C@@H](c5ccc6ccncc6c5)CC[C@H]24)C=C3[C@@H](O)[C@@H]1O` has an inhibition of -4.9% (MAP3K11 (Homo sapiens, UniProt Q16584); ATP probe labelling, inhibitor, KiNativ profiling; 0.1 µM).
`CN(C)C(=O)[C@@H](NC(=O)c1cc(-c2ccnn2C)ccc1-c1ccc(C(F)(F)F)cc1)c1cccc(C(F)(F)F)c1` gave an IC50 of 0.7 µM (NKL effector, Ba/F3-MICA target; NKG2D-mediated cell killing, inhibitor; 4 h, effector:target 20:1).
`CC(C)(C)C(=O)OCOP(=O)(OCOC(=O)C(C)(C)C)C1CCCN(O)C1=O` (stereo not shown) has a log GI50 of -5.85 log M (SNB-75).
Under “serum total bilirubin”, `O=C1NC2(CC2)COc2ncc(F)cc2[C@H]2COCCN2c2ccn3ncc1c3n2` is recorded as 1.3 ± 0.3 µmol/L (Sprague-Dawley rat, female, serum; oral, 20 mg/kg/day, end of recovery, 4-week subacute toxicity).
`COc1ccccc1-c1n[nH]c2nc(N[C@H]3CC[C@H](NS(=O)(=O)CC(C)C)CC3)ncc12` has a relative abundance of 0.97 (bead binding, competition bead pull-down, measured: LINJ.28.3140; Leishmania donovani extract; 10 µM; reference: vehicle).
For `CCOC(=O)C1(Cc2ccccc2)Oc2cc(F)ccc2N(Cc2ccccc2)C1=O` (stereo not shown), the inhibition was 0.46% (L02; cell growth or viability, CCK-8; 0.78 µM, 72 h).

Excerpt of the above:
`CN(C)[C@H]1C[C@@]23CC[C@@]4(O2)C(=CC[C@]2(C)[C@@H](c5ccc6ccncc6c5)CC[C@H]24)C=C3[C@@H](O)[C@@H]1O` has an inhibition of -4.9% (MAP3K11 (Homo sapiens, UniProt Q16584); ATP probe labelling, inhibitor, KiNativ profiling; 0.1 µM).
`CN(C)C(=O)[C@@H](NC(=O)c1cc(-c2ccnn2C)ccc1-c1ccc(C(F)(F)F)cc1)c1cccc(C(F)(F)F)c1` gave an IC50 of 0.7 µM (NKL effector, Ba/F3-MICA target; NKG2D-mediated cell killing, inhibitor; 4 h, effector:target 20:1).
